{"data": "Experimental data of several laboratories", "method": "steady-state kinetics", "B1": "protein (UniProt M4ZR24); chain MNEIGTTWAEGTSERVIRLLTDKRAGRPMSGPDIEGLVKDFTAGSVPDYQMASWLATVACAGLSAEELTALTAAYVDSGERLSLSSSRRPVADKHSTGGVGDKTTLVVAPVVAACGIGVGKVTGRGLGFMGGTVDKLESIPGLDLELSGSALSAQVADLGLAVTGQSPSLVPGDRMTYALRDVTGTVDSIPLIAASIMSKNTKGIAVRCNSIVLDVKYGDGAVLPDRAVATELARTMLELGRSFDLPTTAVISSMEQPLGYAVGNGLEVREAIIALSGTYVEDLTELAITISALMISTADSAVDHDRARDRVREVLSDGSALRMFRAFVARQGGDVGFVDDPSRLETAPHRLVVTATEAGHVARIAARRIGEAALRVGAGRLVYGAPIDHGAGIVLSRRIGDSVAEGEPLATLHGSDYDQLESLADVVRGCFDISERPPGRPDVIVDVLRQGDAG", "B2": "Paox H64A (Mus musculus, UniProt Q8C0L6); chain MAFPGPRVLVVGSGIAGLGAAQKLCSHRAAPHLRVLEATASAGGRIRSERCFGGVVELGAHWIAGPSQDNPVFQLAAEFGLLGEKELSEENQLVDTGGHVALPSMIWSSSGTSVSLELMTEMARLFYGLIERTREFLNESETPMASVGEFLKKEISQQVASWTEDDEDTRKRKLAILNTFFNIECCVSGTHSMDLVALAPFGEYTVLPGLDCILAGGYQGLTDRILASLPKDTVAFDKPVKTIHWNGSFQEAAFPGETFPVLVECEDGARLPAHHVIVTVPLGFLKEHQDTFFEPPLPAKKAEAIKKLGFGTNNKIFLEFEEPFWEPDCQFIQVVWEDTSPLQDTALSLQDTWFKKLIGFLVQPSFESSHVLCGFIAGLESEFMETLSDEEVLLSLTQVLRRVTGNPQLPAAKSVRRSQWHSAPYTRGSYSYVAVGSTGDDLDLMAQPLPEDGTGTQLQVLFAGEATHRTFYSTTHGALLSGWREADRLVSLWDSQVEQSRPRL", "B3": "LigI (Sphingobium sp. SYK-6, UniProt O87170); chain TNDERILSWNETPSKPRYTPPPGAIDAHCHVFGPMAQFPFSPKAKYLPRDAGPDMLFALRDHLGFARNVIVQASCHGTDNAATLDAIARAQGKARGIAVVDPAIDEAELAALHEGGMRGIRFNFLKRLVDDAPKDKFLEVAGRLPAGWHVVIYFEADILEELRPFMDAIPVPIVIDHMGRPDVRQGPDGADMKAFRRLLDSREDIWFKATCPDRLDPAGPPWDDFARSVAPLVADYADRVIWGTDWPHPNMQDAIPDDGLVVDMIPRIAPTPELQHKMLVTNPMRLYWSEEM", "B4": "KS T528V (Arabidopsis thaliana, UniProt Q9SAK2); chain ANNVSFEQTKEKIRKMLEKVELSVSAYDTSWVAMVPSPSSQNAPLFPQCVKWLLDNQHEDGSWGLDNHDHQSLKKDVLSSTLASILALKKWGIGERQINKGLQFIELNSALVTDETIQKPTGFDIIFPGMIKYARDLNLTIPLGSEVVDDMIRKRDLDLKCDSEKFSKGREAYLAYVLEGTRNLKDWDLIVKYQRKNGSLFDSPATTAAAFTQFGNDGCLRYLCSLLQKFEAAVPSVYPFDQYARLSIIVTLESLGIDRDFKTEIKSILDETYRYWLRGDEEICLDLATCALAFRLLLAHGYDVSYDPLKPFAEESGFSDTLEGYVKNTFSVLELFKAAQSYPHESALKKQCCWTKQYLEMELSSWVKTSVRDKYLKKEVEDALAFPSYASLERSDHRRKILNGSAVENTRVTKTSYRLHNICTSDILKLAVDDFNFCQSIHREEMERLDRWIVENRLQELKFARQKLAYCYFSGAATLFSPELSDARISWAKGGVLTVVVDDFFDVGGSKEELENLIHLVEKWDLNGVPEYSSEHVEIIFSVLRDTILETGDKAFTYQGRNVTHHIVKIWLDLLKSMLREAEWSSDKSTPSLEDYMENAYISFALGPIVLPATYLIGPPLPEKTVDSHQYNQLYKLVSTMGRLLNDIQGFKRESAEGKLNAVSLHMKHERDNRSKEVIIESMKGLAERKREELHKLVLEEKGSVVPRECKEAFLKMSKVLNLFYRKDDGFTSNDLMSLVKSVIYEPVSLQEESLT", "B5": "TylM1 (Streptomyces fradiae, UniProt P95748); chain MAHSSATAGPQADYSGEIAELYDLVHQGKGKDYHREAADLAALVRRHSPKAASLLDVACGTGMHLRHLADSFGTVEGLELSADMLAIARRRNPDAVLHHGDMRDFSLGRRFSAVTCMFSSIGHLAGQAELDAALERFAAHVLPDGVVVVEPWWFPENFTPGYVAAGTVEAGGTTVTRVSHSSREGEATRIEVHYLVAGPDRGITHHEESHRITLFTREQYERAFTAAGLSVEFMPGGPSGRGLFTGLPGAKGETR", "B6": "MCAT R178G (Homo sapiens, UniProt Q8IVS2); chain GQGSQVVGMGRGLLNYPRVRELYAAARRVLGYDLLELSLHGPQETLDRTVHCQPAIFVASLAAVEKLHHLQPSVIENCVAAAGFSVGEFAALVFAGAMEFAEGLYAVKIGAEAMQEASEAVPSGMLSVLGQPQSKFNFACLEAREHCKSLGIENPVCEVSNYLFPDCRVISGHQEALRFLQKNSSKFHFRRTRMLPVSGAFHTRLMEPAVEPLTQALKAVDIKKPLVSVYSNVHAHRYRHPGHIHKLLAQQLVSPVKWEQTMHAIYERKKGRGFPQTFEVGPGRQLGAILKSCNMQAWKSYSAVDVL", "B7": "LYS12 D271N (Saccharomyces cerevisiae, UniProt P40495); chain SLTIGLIPGDGIGKEVIPAGKQVLENLNSKHGLSFNFIDLYAGFQTFQETGKALPDETVKVLKEQCQGALFGAVQSPTTKVEGYSSPIVALRREMGLFANVRPVKSVEGEKGKPIDMVIVRENTEDLYIKIEKTYIDKATGTRVADATKRISEIATRRIATIALDIALKRLQTRGQATLTVTHKSNVLSQSDGLFREICKEVYESNKDKYGQIKYNEQIVDSMVYRLFREPQCFDVIVAPNLYGDILSNGAAALVGSLGVVPSANVGPEIVIGEPCHGSAPDIAGKGIANPIATIRSTALMLEFLGHNEAAQDIYKAVDANLREGSIKTPDLGGKASTQQVVDDVLSRL", "B8": "enzyme (Comamonas testosteroni, UniProt B7WQT1); chain MMTHEENELLCRVEGDAPMGRLMRRHWTPICLVEEVGEPDGTPVKARAFGEDLVVFRDSEGRVGVMDEYCPHRRASLVYGRNEEGGLRCLYHGWKMDVDGNVLEMASEPAASGMVDKVKHTAYPTQEWAGMVWAYMGPKETMPEFLPPAWAPTADTRVSIAKVLLPCNWAQILEGAIDSAHSSSLHSSDMVPARVDGAKATDKTWLRPSTDKAPRMQVQRTGYGFRYAALRRPLSNAAENDYVRSTVFVAPATALIPPNNLYNVANINVPMDDTNTAFYFIAWGHPSQTPETETWRKFLRQTVGVDLDQNYRPLRNEANKFWQDRNAMKAGNFTGITGFPNQDVAMWLTMGPIADRTHDRLGASDLAIVEFRKQMLDAVKAFEQGAPAIGTGVEAATPTVCSFQAIVPKTTDWRTYDAHYVWLDGQDRPEFEPSYSVKS", "B9": "BshA (Bacillus subtilis, UniProt P42982); chain MRKLKIGITCYPSVGGSGIIATELGKQLAEKGHEIHFITSSIPFRLNTYHPNIHFHEVEVNQYAVFKYPPYDLTLASKIAEVAERENLDIIHAHYALPHAVCAYLAKQMLKRNIGIVTTLHGTDITVLGYDPSLKDLIRFAIESSDRVTAVSSALAAETYDLIKPEKKIETIYNFIDERVYLKKNTAAIKEKHGILPDEKVVIHVSNFRKVKRVQDVIRVFRNIAGKTKAKLLLVGDGPEKSTACELIRKYGLEDQVLMLGNQDRVEDLYSISDLKLLLSEKESFGLVLLEAMACGVPCIGTNIGGIPEVIKNNVSGFLVDVGDVTAATARAMSILEDEQLSNRFTKAAIEMLENEFSSKKIVSQYEQIYADLAEPE", "B10": "protein (UniProt A0A4Y6I0S2); chain MTFEEKPMKFDGLDIEGVAFAPSVAALGSAKPLVLGGAGDRGLEINGNYIKFTAIGIYIEDGIIPHLSSKLSGKTVLELCEKDLLFEEVIYAPFEKLVRVVFIAPLTGIQYSEKVLERISVQALYTDIKEEHKQQFLEIFKGESFPPQSSAILSFSKEGLKVAFSKGDDVPAKAVGTIENARFADAVLGTIIWRDGVSPAAKVSLAERVSKYLQLGPSDGLASVPQSK", "note": "Lines come from different studies, so protocols differ.", "UniProt P10635, sequence (whole entry, looked up)": "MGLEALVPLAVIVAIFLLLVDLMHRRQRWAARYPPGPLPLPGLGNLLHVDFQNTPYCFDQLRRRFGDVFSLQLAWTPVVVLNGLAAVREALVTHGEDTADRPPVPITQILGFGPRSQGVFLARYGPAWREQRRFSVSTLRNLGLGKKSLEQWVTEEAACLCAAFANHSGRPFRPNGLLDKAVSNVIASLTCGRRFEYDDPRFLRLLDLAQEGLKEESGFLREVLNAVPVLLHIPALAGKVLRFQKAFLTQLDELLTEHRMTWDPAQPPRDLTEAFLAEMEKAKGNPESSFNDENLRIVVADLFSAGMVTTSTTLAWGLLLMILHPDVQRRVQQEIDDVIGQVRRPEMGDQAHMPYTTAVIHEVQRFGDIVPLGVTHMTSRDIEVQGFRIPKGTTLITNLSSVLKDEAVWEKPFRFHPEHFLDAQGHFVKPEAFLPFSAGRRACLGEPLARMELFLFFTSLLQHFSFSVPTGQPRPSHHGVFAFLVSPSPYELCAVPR", "UniProt O60656, sequence (whole entry, looked up)": "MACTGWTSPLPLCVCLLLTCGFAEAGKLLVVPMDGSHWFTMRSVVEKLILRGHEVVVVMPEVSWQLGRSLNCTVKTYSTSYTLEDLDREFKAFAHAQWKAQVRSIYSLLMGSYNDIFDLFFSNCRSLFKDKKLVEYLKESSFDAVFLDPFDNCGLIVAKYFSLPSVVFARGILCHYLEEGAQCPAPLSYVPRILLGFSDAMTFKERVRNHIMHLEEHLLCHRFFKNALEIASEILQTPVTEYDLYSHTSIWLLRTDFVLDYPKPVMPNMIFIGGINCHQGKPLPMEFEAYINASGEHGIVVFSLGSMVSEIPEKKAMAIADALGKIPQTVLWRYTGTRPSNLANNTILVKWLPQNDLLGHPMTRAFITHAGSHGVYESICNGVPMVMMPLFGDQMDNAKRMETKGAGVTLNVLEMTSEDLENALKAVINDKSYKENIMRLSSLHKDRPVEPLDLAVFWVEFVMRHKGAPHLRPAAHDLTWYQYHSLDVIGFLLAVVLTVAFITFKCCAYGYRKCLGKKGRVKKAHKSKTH"}
{"Molecule": "B1 (protein)", "substrate": "Cc1cn([C@H]2C[C@H](O)[C@@H](CN)O2)c(=O)[nH]c1=O", "setting": "phosphorolysis, single substrate, with: phosphate", "Km [µM]": 130}
{"Molecule": "B2 (Paox H64A)", "substrate": "CC(=O)NCCCNCCCCNCCCN", "setting": "pH 10, 30 °C", "Km [µM]": 50}
{"Molecule": "B3 (LigI)", "substrate": "O=C(O)/C=C(\\CC(=O)C(=O)O)C(=O)O", "setting": "pH 8.25, 30 °C, reverse reaction, tautomer mixture", "Km [µM]": 18}
{"Molecule": "UGT1A9 (Homo sapiens, UniProt O60656)", "substrate": "CC(=O)c1ccc(O)cc1", "setting": "pH 7.4, 37 °C", "Km [µM]": 317}
{"Molecule": "B4 (KS T528V)", "substrate": "C=C1CC[C@@H]2C(C)(C)CCC[C@@]2(C)[C@@H]1CC/C(C)=C/COP(=O)(O)OP(=O)(O)O", "setting": "pH 7.2, 30 °C, GGPP-derived substrate", "Km [µM]": 5}
{"Molecule": "CYP2D6 (Homo sapiens, UniProt P10635)", "substrate": "CCN(CC)CCNC(=O)c1ccc(N)cc1", "setting": "pH 7.4, 37 °C", "Km [µM]": 140}
{"Molecule": "B5 (TylM1)", "substrate": "Cc1cn([C@H]2C[C@H](O)[C@@H](COP(=O)(O)OP(=O)(O)O[C@H]3O[C@H](C)[C@@H](O)[C@H](N)[C@H]3O)O2)c(=O)[nH]c1=O", "setting": "25 °C, with: SAM", "Km [µM]": 45}
{"Molecule": "B6 (MCAT R178G)", "substrate": "CC(C)(COP(=O)(O)OP(=O)(O)OC[C@H]1O[C@@H](n2cnc3c(N)ncnc32)[C@H](O)[C@@H]1OP(=O)(O)O)[C@@H](O)C(=O)NCCC(=O)NCCSC(=O)CC(=O)O", "setting": "pH 6.8, 20 °C, labelled substrate, with: holo-ACP 20 µM", "Km [µM]": 71.2}
{"Molecule": "B7 (LYS12 D271N)", "substrate": "NC(=O)c1ccc[n+]([C@@H]2O[C@H](COP(=O)([O-])OP(=O)(O)OC[C@H]3O[C@@H](n4cnc5c(N)ncnc54)[C@H](O)[C@@H]3O)[C@@H](O)[C@H]2O)c1", "setting": "pH 7.5, 25 °C, potassium acetate 100 mM, with: Mg-cosubstrate varied; Mg2+ 10 mM", "Km [µM]": 25}
{"Molecule": "B8 (enzyme)", "substrate": "O=C(O)c1ccc(C(=O)O)cc1", "setting": "pH 8, 25 °C, apparent", "Km [µM]": 90}
{"Molecule": "B9 (BshA)", "substrate": "CC(=O)N[C@H]1[C@@H](OP(=O)(O)OP(=O)(O)OC[C@H]2O[C@@H](n3ccc(=O)[nH]c3=O)[C@H](O)[C@@H]2O)O[C@H](CO)[C@@H](O)[C@@H]1O", "setting": "pH 7.5, 21 °C, with: malate 0–25 mM", "Km [µM]": 160}
{"Molecule": "enzyme (Thermotoga maritima, UniProt Q9WZ18)", "substrate": "Cc1cc2nc3c(=O)[nH]c(=O)nc-3n(C[C@H](O)[C@H](O)[C@H](O)COP(=O)(O)OP(=O)(O)OC[C@H]3O[C@@H](n4cnc5c(N)ncnc54)[C@H](O)[C@@H]3O)c2cc1C", "setting": "pH 7, 80 °C, apparent, cofactor varied", "Km [µM]": 0.15}
{"Molecule": "B10 (protein)", "substrate": "O=C(/C=C/c1ccc(O)cc1)c1c(O)cc(O)cc1O", "Km [µM]": 90.3}
{"note": "For quick reference, copied from above:"}
{"Molecule": "B2 (Paox H64A)", "substrate": "CC(=O)NCCCNCCCCNCCCN", "setting": "pH 10, 30 °C", "Km [µM]": 50}
